Measured values of several laboratories.
Each numbered part is a random draw from the data of one study; scales do not carry over between parts.

Set 1
Cell line: HEK-293T-ACE2
Tested at: concentration not given
Relative to: vehicle
The cell number of `CC(CN(C)C)CN1c2ccccc2Sc2ccccc21.CC(CN(C)C)CN1c2ccccc2Sc2ccccc21.O=C(O)C(O)C(O)C(=O)O` (stereo not drawn) is reported as 101%.
`CC1(C)CCC(CN2CCN(c3ccc(C(=O)NS(=O)(=O)c4ccc(NCC5CCOCC5)c([N+](=O)[O-])c4)c(Oc4cnc5[nH]ccc5c4)c3)CC2)=C(c2ccc(Cl)cc2)C1` gave a cell number of 2.73%.
`CCCCC(O)c1ccccc1` (stereo not drawn) has a cell number of 99%.

Set 2
Target: Replicase polyprotein 1ab, nsp13 helicase (rep, Severe acute respiratory syndrome coronavirus 2, UniProt P0DTD1)
Action: inhibitor
Tested at: 20 µM
The inhibition of `CC[C@]12C=CCN3CC[C@@]4(c5cc([C@@]6(C(=O)OC)C[C@@H]7C[C@@H](C(C)(F)F)CN(Cc8c6[nH]c6ccccc86)C7)c(OC)cc5N(C)[C@H]4[C@@](O)(C(=O)OC)[C@@H]1OC(C)=O)[C@@H]32` is reported as 3.18%.
`CN(C)c1nc(N(C)C)nc(N(C)C)n1` gave an inhibition of 4.19%.
The inhibition of `CC1(C)[C@H]2CC[C@]1(C)[C@@H](O)[C@H]2O` is reported as 8.66%.
The inhibition of `O=c1[nH]nc(Sc2ncc([N+](=O)[O-])s2)n1-c1ccc2c(c1)OCCO2` is reported as 96.8%.
The inhibition of `C[C@@H](O)[C@@H]1NC(=O)[C@H](CCCCN)NC(=O)[C@@H](Cc2c[nH]c3ccccc23)NC(=O)[C@H](Cc2ccccc2)NC(=O)[C@@H](NC(=O)[C@H](N)Cc2ccccc2)CSSC[C@@H](C(=O)N[C@H](CO)[C@@H](C)O)NC1=O` is reported as 3.9%.
With `NCC(=O)Nc1ccc(-n2nc(C(F)(F)F)cc2-c2ccc3c(ccc4ccccc43)c2)cc1` the inhibition was 5.17%.
The inhibition of `c1ccc(CN(CC2=NCCN2)c2ccccc2)cc1` is reported as 0.52%.
`COCC(=O)O[C@]1(CCN(C)CCCc2nc3ccccc3[nH]2)CCc2cc(F)ccc2[C@@H]1C(C)C` gave an inhibition of 5.48%.
For `Cc1cc(Cn2cnc3c2C[C@@H](C(=O)O)N(C(=O)C(c2ccccc2)c2ccccc2)C3)ccc1N(C)C`, the inhibition was 2%.
The inhibition of `CO[C@H]1[C@H](O)[C@H](O[C@H]2CC[C@@]3(C=O)[C@H](CC[C@@H]4[C@@H]3CC[C@]3(C)[C@@H](C5=CC(=O)OC5)CC[C@]43O)C2)O[C@@H](C)[C@@H]1O` is reported as 2.57%.
The inhibition of `O=C1C=C2C=C[C@@H]3C[C@@]2(O1)[C@H]1CCCCN31` is reported as 0.74%.

Set 3
Target: Replicase polyprotein 1ab, main protease (rep, Severe acute respiratory syndrome coronavirus 2, UniProt P0DTD1)
Effect on: enzyme activity
Action: inhibitor
Tested at: 20 µM
With `COCCCOc1ccnc(C[S+]([O-])c2nc3ccccc3[nH]2)c1C` (stereo not drawn) the inhibition was -10.5%.
`CC(=O)[O][Pt]([NH2])([Cl])([Cl])([NH]C1CCCCC1)[O]C(C)=O` has an inhibition of 95.9%.
The inhibition of `Cc1ccc(S(=O)(=O)c2ccc([N+](=O)[O-])o2)cc1` is reported as 5.82%.
The inhibition of `CN1Cc2ccccc2[C@@H]2c3cccc4[nH]cc(c34)C[C@H]21` is reported as -3.59%.
With `O=C(O)C(=O)CBr` the inhibition was -18.7%.

Set 4
Target: Sal-like protein 4, full length isoform B (SALL4, Homo sapiens, UniProt Q9UJQ4-2, residues 1-616)
Method: universal PBM
Form: double-stranded DNA, one strand shown
Matrix: in vitro
Tested at: not given
Setting: 8-mer, flanks averaged, mean of replicates
Reading: higher = stronger binding
`ACGTTCTC` has an E-score of 0.0451.
`ACAACTAA` gave an E-score of 0.253.
With `ACACACCA` the E-score was 0.0126.
With `CATTAGCG` the E-score was -0.0518.
For `CGGACTCA`, the E-score was -0.169.
For `CCCGTAAA`, the E-score was 0.0627.
For `AAGCCGGC`, the E-score was -0.32.
The E-score of `GCCGAAGC` is reported as -0.28.

A few entries again (set 4):
`ACGTTCTC` has an E-score of 0.0451.
`ACAACTAA` gave an E-score of 0.253.
With `ACACACCA` the E-score was 0.0126.
